Measured values from different studies.
Numbered parts are unrelated; each lists some results of a single study.

Block 1
Target: Interferon regulatory factor 7, full length, phosphomimetic (IRF7, Homo sapiens, UniProt Q92985, residues 1-503, S471D/S472D/S475D/S476D/S477D/S483D/S484D/S487D)
Sequence of UniProt Q92985 (whole entry, unmodified, looked up): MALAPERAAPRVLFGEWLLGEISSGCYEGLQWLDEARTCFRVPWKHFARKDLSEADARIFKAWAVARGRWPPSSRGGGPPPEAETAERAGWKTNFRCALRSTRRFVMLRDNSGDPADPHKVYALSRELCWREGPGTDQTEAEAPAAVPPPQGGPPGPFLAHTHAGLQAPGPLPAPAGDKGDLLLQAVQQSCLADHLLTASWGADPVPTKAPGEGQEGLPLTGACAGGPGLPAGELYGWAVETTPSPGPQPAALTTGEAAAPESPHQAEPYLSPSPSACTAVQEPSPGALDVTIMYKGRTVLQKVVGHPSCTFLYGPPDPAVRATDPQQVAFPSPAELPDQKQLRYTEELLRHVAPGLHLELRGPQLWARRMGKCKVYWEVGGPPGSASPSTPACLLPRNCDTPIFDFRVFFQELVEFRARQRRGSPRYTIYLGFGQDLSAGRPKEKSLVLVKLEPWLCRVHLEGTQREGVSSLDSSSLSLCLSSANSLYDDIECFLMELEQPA
Method: protein-binding microarray
Molecule type: double-stranded DNA, one strand shown
Medium: in vitro
Tested at: 2200 nM top
Setting: 60-bp whole probe
Together with: salmon DNA 0.4 mg/ml
Relative to: random background probes
Direction: higher = stronger binding
Constant ends, left off below: GCCTAGCAC … GTCTTGATTCGCTTGACGCTGCTG
Under “fitted relative affinity”, `TTATAACTGAGACTGGATTAGTGCTAG` is recorded as -0.321 z-score.
For `TCACATGTGGGTTCCATACTGTGCTAG`, “fitted relative affinity” read 1.17 z-score.
`GACGGTATCGGGAATCGGGACGTGCTA`: “fitted relative affinity” -0.351 z-score.
For `TGCTGGTTTTGTGGTCTAATGTGCTAG`, “fitted relative affinity” read 0.843 z-score.
Under “fitted relative affinity”, `TCATCTCTGTTTATGTCACTGTGCTAG` is recorded as 1.95 z-score.

Block 2
Target: Sal-like protein 4, full length isoform B (SALL4, Homo sapiens, UniProt Q9UJQ4-2, residues 1-616)
Method: universal PBM
Molecule type: double-stranded DNA, one strand shown
Medium: in vitro
Tested at: not given
Setting: 8-mer, flanks averaged, mean of replicates
Direction: higher = stronger binding
Target sequence (chain): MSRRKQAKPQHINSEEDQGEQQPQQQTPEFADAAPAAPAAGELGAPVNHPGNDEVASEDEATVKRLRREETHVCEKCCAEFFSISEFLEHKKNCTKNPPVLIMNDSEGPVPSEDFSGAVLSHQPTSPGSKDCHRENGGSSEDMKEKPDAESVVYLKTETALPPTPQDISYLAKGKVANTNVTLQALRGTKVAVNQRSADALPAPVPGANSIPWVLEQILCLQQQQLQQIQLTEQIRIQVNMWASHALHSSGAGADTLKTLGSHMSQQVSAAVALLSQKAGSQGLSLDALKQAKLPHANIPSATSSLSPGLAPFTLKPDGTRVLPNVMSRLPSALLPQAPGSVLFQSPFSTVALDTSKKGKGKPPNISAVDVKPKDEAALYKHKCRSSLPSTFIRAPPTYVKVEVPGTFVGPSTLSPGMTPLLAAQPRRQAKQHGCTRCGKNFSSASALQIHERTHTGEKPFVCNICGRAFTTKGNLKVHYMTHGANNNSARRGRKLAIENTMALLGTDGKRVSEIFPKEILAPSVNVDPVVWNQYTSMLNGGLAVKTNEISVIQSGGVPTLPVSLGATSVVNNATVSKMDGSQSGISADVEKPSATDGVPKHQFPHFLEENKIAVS
For `CAGTCGCG`, the E-score was -0.411.
For `GTGCTTTA`, the E-score was 0.0809.
`GCATCAAA` has an E-score of 0.161.
The E-score of `GGTTCAGA` is reported as -0.0408.

Block 3
Target: Prothrombin, mature alpha-thrombin (F2, Homo sapiens, UniProt P00734)
Method: aptamer microarray, sandwich
Molecule type: DNA with 2'F-ANA
Medium: in vitro
Tested at: 200 nM
Setting: whole 15-mer aptamer, many near background
Together with: Cy3 exosite-II aptamer, 400 nM
Direction: higher = stronger binding
`GGTTGGTGTGGTTGG (2'F-ANA at 1 2 3 5 6 10 11 12)` — result for “mean fluorescence intensity”: 358 a.u.
Under “mean fluorescence intensity”, `GGTTGGTGTGGTTGG (2'F-ANA at 2 3 4 6 10 12 13 15)` is recorded as 240 a.u.
`GGTTGGTGTGGTTGG (2'F-ANA at 3 4 5 8 14)` — result for “mean fluorescence intensity”: 50.7 a.u.
`GGTTGGTGTGGTTGG (2'F-ANA at 1 2 7 13 15)`: “mean fluorescence intensity” 141 a.u.

Mixed results
With `PhoQ, residues 284 288 289 292 302 303 GNNTDL` the fold induction was 7.98 (PhoP, residues 12 14 15 18 19 SYFRT (Escherichia coli, UniProt P23836); Sort-seq, item: YFP reporter; E. coli; PhoQ-PhoP variant library, together with: 10 µM Mg2+; relative to: high Mg2+ state, higher = stronger signaling).

A few entries again (block 2):
`GCATCAAA` has an E-score of 0.161.
